Published values gathered from unrelated publications.
Compare with care: the assays were run in different laboratories. ± gives the spread as reported.
Sequence of UniProt P14616 (whole entry, looked up): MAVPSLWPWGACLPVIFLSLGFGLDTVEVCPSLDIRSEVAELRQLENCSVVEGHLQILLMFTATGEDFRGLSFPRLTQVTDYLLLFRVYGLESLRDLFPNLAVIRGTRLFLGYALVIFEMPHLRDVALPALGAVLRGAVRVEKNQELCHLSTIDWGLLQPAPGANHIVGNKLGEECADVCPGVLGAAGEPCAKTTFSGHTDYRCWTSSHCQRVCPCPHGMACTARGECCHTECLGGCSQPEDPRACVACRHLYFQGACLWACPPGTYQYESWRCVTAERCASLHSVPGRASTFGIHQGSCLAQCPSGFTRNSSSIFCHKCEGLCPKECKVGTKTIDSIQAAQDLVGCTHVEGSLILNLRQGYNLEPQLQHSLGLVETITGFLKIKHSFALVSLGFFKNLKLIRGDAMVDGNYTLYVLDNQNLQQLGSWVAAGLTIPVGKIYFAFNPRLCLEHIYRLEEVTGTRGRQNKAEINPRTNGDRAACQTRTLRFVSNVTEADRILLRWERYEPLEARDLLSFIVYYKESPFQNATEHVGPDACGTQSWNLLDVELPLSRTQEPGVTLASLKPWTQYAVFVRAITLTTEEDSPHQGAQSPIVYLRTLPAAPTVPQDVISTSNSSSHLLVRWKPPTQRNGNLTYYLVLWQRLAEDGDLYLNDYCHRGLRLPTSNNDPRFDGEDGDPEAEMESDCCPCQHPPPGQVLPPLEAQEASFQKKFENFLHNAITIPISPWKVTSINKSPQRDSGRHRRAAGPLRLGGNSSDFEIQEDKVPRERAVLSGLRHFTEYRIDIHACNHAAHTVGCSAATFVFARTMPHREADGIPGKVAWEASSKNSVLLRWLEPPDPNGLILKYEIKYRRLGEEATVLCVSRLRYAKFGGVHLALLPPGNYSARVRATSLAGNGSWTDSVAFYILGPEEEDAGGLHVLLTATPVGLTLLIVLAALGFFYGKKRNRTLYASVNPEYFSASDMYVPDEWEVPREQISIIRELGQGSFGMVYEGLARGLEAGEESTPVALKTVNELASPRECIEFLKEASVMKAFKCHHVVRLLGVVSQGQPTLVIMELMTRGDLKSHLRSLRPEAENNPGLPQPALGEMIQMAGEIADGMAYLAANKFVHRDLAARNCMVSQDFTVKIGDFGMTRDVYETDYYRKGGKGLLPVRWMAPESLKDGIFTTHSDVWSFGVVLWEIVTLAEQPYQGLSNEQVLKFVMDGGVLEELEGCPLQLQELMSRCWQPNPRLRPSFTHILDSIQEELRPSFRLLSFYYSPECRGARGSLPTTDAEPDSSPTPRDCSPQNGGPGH

Structure (SMILES)	tested on	test	system	conditions	scale	measurement	result
CC[C@H](C)[C@H](NC(=O)[C@H](CCCNC(=N)N)NC(=O)[C@H](CCCCN)NC(=O)[C@H](Cc1ccc(O)cc1)NC(=O)[C@H](CC(=O)O)NC(=O)[C@H](C)NC(=O)CNC(=O)CCOCCOCCOCCNC(=O)CN1CCN(CC(=O)O)CCN(CC(=O)O)CCN(CC(=O)O)CC1)C(=O)N[C@H](C(=O)N[C@@H](CC(C)C)C(=O)N[C@@H](CCCCN)C(=O)N[C@H](C(=O)N[C@@H](CC(N)=O)C(N)=O)C(C)C)[C@@H](C)O [copper-64 labelled]		ex vivo gamma counting	C57BL/6J male mice, B16-F10 tumour, lung	intravenous, 1.85 MBq, 5 min		tissue uptake	3.25 ± 0.101 %ID/g
CSCC[C@H](NC(=O)CNC(=O)[C@H](CCCCN)NC(=O)[C@H](CC(C)C)NC(=O)[C@@H]1CCCN1C(=O)[C@H](CO)NC(=O)[C@H](Cc1c[nH]cn1)NC(=O)[C@H](Cc1c[nH]c2ccccc12)NC(=O)[C@H](CCCNC(=N)N)NC(=O)[C@H](CC(C)C)NC(=O)[C@H](CCCNC(=N)N)NC(=O)[C@H](Cc1c[nH]c2ccccc12)NC(=O)[C@H](CS)NC(=O)CCCCCNC(=O)CN1CCN(CC(=O)O)CCN(CC(=O)O)CCN(CC(=O)O)CC1)C(=O)O [copper-64 labelled]		ex vivo biodistribution	male C57BL/6J mice, muscle	intravenous, 1.85 MBq, 2 h, B16-F10 tumour-bearing		tissue uptake	0.46 %ID/g
O=C1NC2(CC2)COc2ncc(F)cc2[C@H]2COCCN2c2ccn3ncc1c3n2			Sprague-Dawley rat, male, testes	oral, 5 mg/kg/day, 4 weeks, end of treatment		organ-to-brain weight ratio	150 ± 6.91%
CCCC[C@H]1C(=O)N(C)[C@@H](CCCC)C(=O)N[C@@H](CCCNC(=O)CN2CCN(CC(=O)O)CCN(CC(=O)O)CCN(CC(=O)O)CC2)C(=O)N[C@H](C(=O)NCC(N)=O)CSCC(=O)N[C@@H](Cc2ccc(O)cc2)C(=O)N(C)[C@@H](C)C(=O)N[C@@H](CC(N)=O)C(=O)N2CCC[C@H]2C(=O)N[C@@H](Cc2c[nH]cn2)C(=O)N[C@@H](CC(C)C)C(=O)N(C)CC(=O)N[C@@H](Cc2c[nH]c3ccccc23)C(=O)N[C@@H](CO)C(=O)N[C@@H](Cc2c[nH]c3ccccc23)C(=O)N1C [gallium-68 labelled]			NOD/SCID mice with CHO-hPD-L1 xenograft, heart	10 min post injection		tissue uptake	3.57 ± 0.21 %ID/g
C[C@H](O)[C@@H](NC(=O)[C@H]1CCCN1C(=O)[C@@H](CCCCN)NC(=O)[C@@H](CO)NC(=O)[C@@H](Cc1ccc(O)cc1)NC(=O)[C@@H](CC(N)=O)NC(=O)CCOCCOCCOCCNC(=O)CN1CCN(CC(=O)O)CCN(CC(=O)O)CCN(CC(=O)O)CC1)C(=O)N[C@H](CC(=O)O)C(=O)N[C@H](CCCNC(=N)N)C(=O)N[C@H](CCC(N)=O)C(=O)N[C@H](Cc1ccc(O)cc1)C(=O)N[C@H](Cc1c[nH]cn1)C(=O)N[C@H](Cc1ccccc1)C(N)=O [copper-64 labelled]			C57BL/6J mice, spleen	intravenous, 1.85 MBq, 0.3333 h, radiolabelled		tissue uptake	0.63 ± 0.16 %ID/g
CC[C@H](C)[C@H](NC(=O)[C@H](CCCCN)NC(=O)CNC(=O)[C@H](CC(C)C)NC(=O)[C@H](Cc1ccccc1)NC(=O)[C@H](CCCCN)NC(=O)[C@H](CO)NC(=O)[C@H](Cc1ccccc1)NC(=O)[C@H](Cc1c[nH]c2ccccc12)NC(=O)[C@H](CCC(N)=O)NC(=O)[C@@H](NC(=O)[C@H](Cc1ccccc1)NC(=O)CCCCCNC(=O)CN1CCN(CC(=O)O)CCN(CC(=O)O)CCN(CC(=O)O)CC1)C(C)C)C(=O)N[C@@H](CCC(=O)O)C(=O)N1CCC[C@H]1C(=O)N[C@@H](CC(=O)O)C(=O)N[C@H](C(=O)N[C@@H](CO)C(=O)N[C@@H](CCC(N)=O)C(=O)N[C@H](C(=O)N[C@@H](CCC(N)=O)C(=O)N[C@@H](CC(=O)O)C(=O)N1CCC[C@H]1C(=O)N[C@@H](CC(N)=O)C(=O)N[C@@H](CC(=O)O)C(=O)N[C@@H](CCC(N)=O)C(=O)N[C@@H](Cc1ccc(O)cc1)C(=O)N[C@@H](CCC(=O)O)C(=O)N1CCC[C@H]1C(=O)N[C@@H](Cc1ccccc1)C(=O)O)C(C)C)C(C)C [copper-64 labelled]			C57BL/6 male mouse, tumour-naive, lung	2 h		tissue uptake	6.88 ± 0.2 %ID/g
COc1ccccc1-c1n[nH]c2nc(NC3CCN(C(=O)Cc4ccc(F)cc4F)CC3)ncc12		bead binding, competition bead pull-down, item: LINJ.27.1710	Leishmania donovani axenic amastigote extract	10 µM	relative to: vehicle	relative abundance	1.01
CC(C)(C)C(=O)OCOP(=O)(OCOC(=O)C(C)(C)C)C1CCCN(O)C1=O (stereo not shown)	ACHN					TGI	7.97 µM
CN1Cc2cc(Cl)ccc2-n2c(nnc2C2CCN(c3cccc([18F])n3)CC2)C1			C57BL/6 mouse male, liver	intravenous, 3.7 MBq, 1 min		tissue uptake	10.7 ± 5.65 %ID/g
CC[C@H](C)[C@H](NC(=O)[C@H](CCCNC(=N)N)NC(=O)[C@H](CCCCN)NC(=O)[C@H](Cc1ccc(O)cc1)NC(=O)[C@H](CC(=O)O)NC(=O)[C@H](C)NC(=O)CNC(=O)CCOCCOCCOCCNC(=O)CN1CCN(CC(=O)O)CCN(CC(=O)O)CCN(CC(=O)O)CC1)C(=O)N[C@H](C(=O)N[C@H](C(=O)N[C@@H](CCCCN)C(=O)N[C@H](C(=O)N[C@@H](CC(N)=O)C(N)=O)C(C)C)C(C)C)[C@@H](C)O [copper-64 labelled]		ex vivo gamma counting	C57BL/6J male mice, B16-F10 tumour, stomach	intravenous, 1.85 MBq, 5 min		tissue uptake	1.6 ± 0.188 %ID/g
CC[C@H](C)[C@H](NC(=O)[C@@H](Cc1c[nH]c2ccccc12)NC(=O)[C@@H]1CCCN1C(=O)[C@H](CCCCN)NC(=O)[C@H](CCCCN)NC(=O)CCNC(=O)CCNC(=O)CN1CCN(CC(=O)O)CCN(CC(=O)O)CCN(CC(=O)O)CC1)C(=O)N[C@@H](C[Si](C)(C)C)C(=O)O [gallium-68 labelled]			nude mouse HT-29 xenograft, salivary glands	90 min		tissue uptake	0.28 ± 0.17 %ID/g
CC(C)C[C@@H](NC(=O)[C@@H](CCCNC(=N)N)NC(=O)[C@@H](Cc1c[nH]cn1)NC(=O)[C@@H](Cc1c[nH]c2ccccc12)NC(=O)[C@@H](Cc1c[nH]cn1)NC(=O)[C@@H](Cc1ccccc1)NC(=O)[C@H](NC(=O)[C@@H](Cc1ccc(O)cc1)NC(=O)CNC(=O)CNC(=O)CCOCCOCCOCCNC(=O)CN1CCN(CC(=O)O)CCN(CC(=O)O)CC1)[C@H](C)O)C(=O)N[C@H](CC(N)=O)C(=O)N1CCC[C@@H]1C(=O)O [gallium-68 labelled]			C57BL/6 mice, male, heart	intravenous, 1.85 MBq, 60 min, together with: blocking antibody		tissue uptake	1.06 ± 0.46 %ID/g
CC(C)[C@H]1NC(=O)C[C@H]2/C=C/CCSSC[C@@H](NC1=O)C(=O)N[C@H](Cc1cccc3ccccc13)C(=O)NCC(=O)O2	INSRR (Homo sapiens, UniProt P14616)	enzyme activity, inhibitor		10 µM		inhibition	1.3%

A few entries again:
Structure (SMILES)	tested on	test	system	conditions	scale	measurement	result
CC[C@H](C)[C@H](NC(=O)[C@H](CCCNC(=N)N)NC(=O)[C@H](CCCCN)NC(=O)[C@H](Cc1ccc(O)cc1)NC(=O)[C@H](CC(=O)O)NC(=O)[C@H](C)NC(=O)CNC(=O)CCOCCOCCOCCNC(=O)CN1CCN(CC(=O)O)CCN(CC(=O)O)CCN(CC(=O)O)CC1)C(=O)N[C@H](C(=O)N[C@@H](CC(C)C)C(=O)N[C@@H](CCCCN)C(=O)N[C@H](C(=O)N[C@@H](CC(N)=O)C(N)=O)C(C)C)[C@@H](C)O [copper-64 labelled]		ex vivo gamma counting	C57BL/6J male mice, B16-F10 tumour, lung	intravenous, 1.85 MBq, 5 min		tissue uptake	3.25 ± 0.101 %ID/g
CSCC[C@H](NC(=O)CNC(=O)[C@H](CCCCN)NC(=O)[C@H](CC(C)C)NC(=O)[C@@H]1CCCN1C(=O)[C@H](CO)NC(=O)[C@H](Cc1c[nH]cn1)NC(=O)[C@H](Cc1c[nH]c2ccccc12)NC(=O)[C@H](CCCNC(=N)N)NC(=O)[C@H](CC(C)C)NC(=O)[C@H](CCCNC(=N)N)NC(=O)[C@H](Cc1c[nH]c2ccccc12)NC(=O)[C@H](CS)NC(=O)CCCCCNC(=O)CN1CCN(CC(=O)O)CCN(CC(=O)O)CCN(CC(=O)O)CC1)C(=O)O [copper-64 labelled]		ex vivo biodistribution	male C57BL/6J mice, muscle	intravenous, 1.85 MBq, 2 h, B16-F10 tumour-bearing		tissue uptake	0.46 %ID/g
